Published values collected from several papers.
Parts stem from different laboratories: compare values within a part only. Several values in a cell are separate wells, animals, samples, runs or records.
Chain of UniProt P37023 (whole entry, looked up): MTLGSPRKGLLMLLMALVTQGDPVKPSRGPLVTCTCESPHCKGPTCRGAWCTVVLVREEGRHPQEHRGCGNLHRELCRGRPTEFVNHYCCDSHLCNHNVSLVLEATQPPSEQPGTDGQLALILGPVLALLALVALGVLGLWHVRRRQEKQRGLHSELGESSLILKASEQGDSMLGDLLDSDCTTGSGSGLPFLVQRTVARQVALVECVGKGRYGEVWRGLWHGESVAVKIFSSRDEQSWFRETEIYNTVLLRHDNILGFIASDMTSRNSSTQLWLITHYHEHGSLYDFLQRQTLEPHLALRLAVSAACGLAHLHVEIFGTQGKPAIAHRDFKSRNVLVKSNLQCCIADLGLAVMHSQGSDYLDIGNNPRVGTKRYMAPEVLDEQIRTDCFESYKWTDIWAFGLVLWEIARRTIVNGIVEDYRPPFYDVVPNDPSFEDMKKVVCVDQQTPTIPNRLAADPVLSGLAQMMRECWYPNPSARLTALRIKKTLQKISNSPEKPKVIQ
Chain of UniProt O15146 (whole entry, looked up): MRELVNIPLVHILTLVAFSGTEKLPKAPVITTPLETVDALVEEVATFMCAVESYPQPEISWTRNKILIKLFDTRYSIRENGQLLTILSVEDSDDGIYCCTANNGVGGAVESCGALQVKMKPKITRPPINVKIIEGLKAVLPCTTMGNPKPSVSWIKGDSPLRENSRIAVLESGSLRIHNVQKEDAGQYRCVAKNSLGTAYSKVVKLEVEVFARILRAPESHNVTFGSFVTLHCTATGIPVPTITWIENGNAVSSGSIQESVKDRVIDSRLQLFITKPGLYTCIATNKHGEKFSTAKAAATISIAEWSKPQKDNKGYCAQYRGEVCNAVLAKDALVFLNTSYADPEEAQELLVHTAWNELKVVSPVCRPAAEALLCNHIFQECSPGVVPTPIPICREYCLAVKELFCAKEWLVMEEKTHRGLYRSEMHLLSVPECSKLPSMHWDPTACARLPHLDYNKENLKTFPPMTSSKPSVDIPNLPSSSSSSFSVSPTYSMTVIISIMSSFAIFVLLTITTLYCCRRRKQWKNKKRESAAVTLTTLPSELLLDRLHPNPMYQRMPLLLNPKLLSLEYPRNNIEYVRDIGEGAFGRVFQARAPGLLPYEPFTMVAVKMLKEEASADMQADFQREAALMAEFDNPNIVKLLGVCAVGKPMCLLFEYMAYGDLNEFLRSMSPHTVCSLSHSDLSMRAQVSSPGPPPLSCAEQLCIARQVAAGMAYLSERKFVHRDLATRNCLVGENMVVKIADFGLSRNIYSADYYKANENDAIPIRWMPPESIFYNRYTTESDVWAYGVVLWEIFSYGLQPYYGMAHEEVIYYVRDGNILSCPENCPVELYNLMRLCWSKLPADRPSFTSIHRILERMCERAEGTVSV
Chain of UniProt Q9BRS2 (whole entry, looked up): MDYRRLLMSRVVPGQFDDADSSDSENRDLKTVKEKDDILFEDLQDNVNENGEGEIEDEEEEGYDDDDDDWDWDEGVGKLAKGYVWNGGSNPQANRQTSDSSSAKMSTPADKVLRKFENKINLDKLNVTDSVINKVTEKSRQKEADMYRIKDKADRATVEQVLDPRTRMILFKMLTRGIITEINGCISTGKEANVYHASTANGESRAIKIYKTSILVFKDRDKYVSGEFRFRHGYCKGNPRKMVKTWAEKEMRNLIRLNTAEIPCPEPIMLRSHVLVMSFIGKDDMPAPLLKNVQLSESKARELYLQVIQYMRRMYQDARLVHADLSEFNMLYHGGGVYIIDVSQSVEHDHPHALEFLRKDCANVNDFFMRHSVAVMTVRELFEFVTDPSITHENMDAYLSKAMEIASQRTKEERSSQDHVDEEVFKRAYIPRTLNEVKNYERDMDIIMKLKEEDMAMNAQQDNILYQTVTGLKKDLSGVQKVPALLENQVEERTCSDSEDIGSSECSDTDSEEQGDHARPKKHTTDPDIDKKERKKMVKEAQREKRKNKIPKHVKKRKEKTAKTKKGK
Chain of UniProt P42685 (whole entry, looked up): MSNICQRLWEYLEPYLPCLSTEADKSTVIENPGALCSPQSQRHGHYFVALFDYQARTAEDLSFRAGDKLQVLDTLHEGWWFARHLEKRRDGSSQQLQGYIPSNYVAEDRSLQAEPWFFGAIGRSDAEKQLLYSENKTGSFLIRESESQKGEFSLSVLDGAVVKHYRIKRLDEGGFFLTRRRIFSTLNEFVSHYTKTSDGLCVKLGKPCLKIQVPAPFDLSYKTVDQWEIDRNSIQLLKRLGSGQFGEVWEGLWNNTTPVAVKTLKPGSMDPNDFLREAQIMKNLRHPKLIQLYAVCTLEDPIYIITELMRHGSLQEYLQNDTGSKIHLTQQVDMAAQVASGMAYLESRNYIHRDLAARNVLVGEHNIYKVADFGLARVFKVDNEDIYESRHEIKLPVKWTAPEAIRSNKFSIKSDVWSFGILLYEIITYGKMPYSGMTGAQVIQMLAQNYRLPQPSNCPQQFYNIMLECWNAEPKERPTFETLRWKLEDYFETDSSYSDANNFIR
Chain of UniProt Q02156 (whole entry, looked up): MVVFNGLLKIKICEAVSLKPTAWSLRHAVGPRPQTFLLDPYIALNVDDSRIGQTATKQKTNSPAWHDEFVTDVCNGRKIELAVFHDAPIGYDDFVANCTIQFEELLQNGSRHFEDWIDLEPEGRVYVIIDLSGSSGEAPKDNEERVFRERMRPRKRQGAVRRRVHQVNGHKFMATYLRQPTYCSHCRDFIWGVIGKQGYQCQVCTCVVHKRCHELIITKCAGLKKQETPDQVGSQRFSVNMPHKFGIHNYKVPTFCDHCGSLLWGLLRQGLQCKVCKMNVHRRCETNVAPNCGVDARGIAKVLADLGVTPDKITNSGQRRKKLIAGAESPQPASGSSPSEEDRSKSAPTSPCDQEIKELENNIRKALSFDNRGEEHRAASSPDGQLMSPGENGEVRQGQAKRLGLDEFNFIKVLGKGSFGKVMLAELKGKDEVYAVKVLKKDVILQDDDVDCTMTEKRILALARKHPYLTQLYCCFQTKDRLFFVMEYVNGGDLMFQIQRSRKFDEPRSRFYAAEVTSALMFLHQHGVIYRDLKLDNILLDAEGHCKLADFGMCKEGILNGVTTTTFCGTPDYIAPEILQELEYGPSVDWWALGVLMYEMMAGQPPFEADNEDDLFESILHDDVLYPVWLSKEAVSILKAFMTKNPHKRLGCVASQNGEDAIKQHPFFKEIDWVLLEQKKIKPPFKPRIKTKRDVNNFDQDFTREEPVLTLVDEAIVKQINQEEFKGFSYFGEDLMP
Chain of UniProt P45983 (whole entry, looked up): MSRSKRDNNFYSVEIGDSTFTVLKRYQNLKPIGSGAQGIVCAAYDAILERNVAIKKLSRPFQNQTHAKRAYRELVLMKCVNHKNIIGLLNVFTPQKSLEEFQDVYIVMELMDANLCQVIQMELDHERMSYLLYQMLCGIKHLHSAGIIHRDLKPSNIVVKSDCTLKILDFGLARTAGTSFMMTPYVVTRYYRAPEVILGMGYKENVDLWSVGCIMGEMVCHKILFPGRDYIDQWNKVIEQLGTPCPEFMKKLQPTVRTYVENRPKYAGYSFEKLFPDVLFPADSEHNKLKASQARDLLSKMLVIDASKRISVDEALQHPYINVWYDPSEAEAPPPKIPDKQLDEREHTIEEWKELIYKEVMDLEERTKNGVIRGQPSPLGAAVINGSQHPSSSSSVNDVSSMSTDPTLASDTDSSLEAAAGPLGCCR
Chain of UniProt Q8IU85 (whole entry, looked up): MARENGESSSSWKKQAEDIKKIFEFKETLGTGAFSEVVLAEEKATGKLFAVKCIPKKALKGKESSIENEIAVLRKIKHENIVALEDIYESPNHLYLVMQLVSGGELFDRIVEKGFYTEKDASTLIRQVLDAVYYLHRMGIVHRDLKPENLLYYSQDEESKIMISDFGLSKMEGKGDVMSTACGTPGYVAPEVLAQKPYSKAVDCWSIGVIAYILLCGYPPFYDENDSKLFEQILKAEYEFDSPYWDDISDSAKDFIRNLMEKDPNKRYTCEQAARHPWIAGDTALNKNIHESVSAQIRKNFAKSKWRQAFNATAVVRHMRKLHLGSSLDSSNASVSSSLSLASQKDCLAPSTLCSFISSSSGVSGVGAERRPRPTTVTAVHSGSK

Sample 1 — tested at: 1 µM; measurement: remaining binding
SMILES: Cn1nc(C(F)(F)F)cc1-c1cnc(N2CCc3cc(S(=O)(=O)Nc4c(F)cc(Cl)cc4F)cc(N4CCCC4=O)c32)nc1
FRK (Homo sapiens, UniProt P42685); cell-free assay, competition with immobilised ligand: 83%
GRK1 (Homo sapiens, UniProt Q15835); cell-free assay, competition with immobilised ligand: 95%
PIK3C2G (Homo sapiens, UniProt O75747); cell-free assay, competition with immobilised ligand: 94%
PRKCE (Homo sapiens, UniProt Q02156); cell-free assay, competition with immobilised ligand: 96%
BRSK2 (Homo sapiens, UniProt Q8IWQ3); cell-free assay, competition with immobilised ligand: 73%
DYRK2 (Homo sapiens, UniProt Q92630); cell-free assay, competition with immobilised ligand: 87%
SLK (Homo sapiens, UniProt Q9H2G2); cell-free assay, competition with immobilised ligand: 100%
ACVRL1 (Homo sapiens, UniProt P37023); binding, competition with immobilised ligand: 87%
FLT3 (Homo sapiens, UniProt P36888, F691L/ITD); cell-free assay, competition with immobilised ligand: 32%
TESK1 (Homo sapiens, UniProt Q15569); cell-free assay, competition with immobilised ligand: 86%
MAPK8 (Homo sapiens, UniProt P45983); cell-free assay, competition with immobilised ligand: 100%
RIOK1 (Homo sapiens, UniProt Q9BRS2); cell-free assay, competition with immobilised ligand: 96%
CDC42BPG (Homo sapiens, UniProt Q6DT37); competition binding: 100%
CAMK1D (Homo sapiens, UniProt Q8IU85); cell-free assay, competition with immobilised ligand: 99%
MUSK (Homo sapiens, UniProt O15146); cell-free assay, competition with immobilised ligand: 87%

Sample 2 — method: logD(dd/w) and ALogP; setting: JT method; measurement: lipophilic permeability efficiency
CC(C)C[C@@H]1NC(=O)[C@@H](C)NC(=O)[C@@H](CC(C)C)NC(=O)[C@@H](C(C)C)NC(=O)[C@H](C(C)C)NC(=O)[C@H](CC(C)C)NC(=O)[C@@H](CC(C)C)NC1=O: 2.6
CC(C)C[C@@H]1NC(=O)[C@H](C)NC(=O)[C@@H](CC(C)C)NC(=O)[C@H](C)NC(=O)[C@H](CC(C)C)NC(=O)[C@H](CC(C)C)NC(=O)[C@@H](CC(C)C)NC1=O: 2.8
CC(C)C[C@@H]1NC(=O)[C@H](CC(C)C)NC(=O)[C@H](CC(C)C)NC(=O)[C@H](C(C)C)NC(=O)[C@@H](Cc2cscn2)NC(=O)[C@H](CCC(=O)N2CCCC2)NC(=O)[C@H](C)NC1=O: 1.66
CC(C)C[C@@H]1NC(=O)[C@H](CCC(=O)N2CCCC2)NC(=O)[C@H](CC(C)C)NC(=O)[C@@H](CCC(=O)N2CCCC2)NC(=O)[C@H](CC(C)C)NC(=O)[C@@H](CC(C)C)NC(=O)[C@H](CC(C)C)NC1=O: 2.13
CC(C)C[C@@H]1NC(=O)[C@H](CC(C)C)NC(=O)[C@H](CC(C)C)NC(=O)[C@H](C(C)C)NC(=O)[C@H](C(C)C)NC(=O)[C@H](Cc2cscn2)NC(=O)[C@H](C)NC1=O: 2.84
CC(C)C[C@@H]1NC(=O)[C@H](CC(C)C)NC(=O)[C@@H](CC(C)C)NC(=O)[C@@H](CC(C)C)NC(=O)[C@H](C(C)C)NC(=O)[C@H](CC(C)C)NC(=O)[C@@H](CC(C)C)NC1=O: 3.1

Sample 3 — organism: Sarcocystis neurona; read-out: parasite growth; tested at: 10 µM; time: 96 h; baseline: untreated; measurement: log2 fold change
Nc1ccn([C@H]2CC[C@@H](CO)O2)c(=O)n1: 0.28
CC(C)NCC(O)COc1ccc(CC(N)=O)cc1 (centres unmarked): -0.62
COc1cc(C)c(Cc2cnc(N)nc2N)cc1OC: -1.41
CN(C)CCCC1(c2ccc(F)cc2)OCc2cc(C#N)ccc21 (centres unmarked): -0.0847

Sample 4 — cell line: mouse MPNST tumor cells; method: high-content immunofluorescence imaging; measured: nuclear SOX9; tested at: 10 µM; time: 12 h; setting: mean of 2 replicates; baseline: DMSO control; direction: higher = more nuclear SOX9; measurement: nuclear SOX9 intensity
Nc1nc(N)nc(-c2cc(Cl)ccc2Cl)n1: 106 % of DMSO and 107 % of DMSO
NCCCC(O)(P(=O)(O)O)P(=O)(O)O: 97.3 % of DMSO
C#C[C@]1(OC(C)=O)CC[C@H]2[C@@H]3CCC4=CC(=NO)CC[C@@H]4[C@H]3CC[C@@]21CC (mixture of isomers): 105 % of DMSO
Cc1ccsc1/C=C/C1=NCCCN1C: 97.1 % of DMSO

Sample 5 — cell line: HaCaT; tested at: 100 µM; time: 60 h; measurement: viability
Oc1c(I)cc(Cl)c2cccnc12: 15%
C[C@]12C=CC(=O)C=C1CC[C@@H]1[C@@H]2C(=O)C[C@@]2(C)[C@H]1CC[C@]2(O)C(=O)CO: 166%
CN(C)[C@@H]1C(O)=C(C(N)=O)C(=O)[C@@]2(O)C(O)=C3C(=O)c4c(O)ccc(Cl)c4[C@@H](O)[C@H]3C[C@@H]12: 96.9%

Excerpt of the above (sample 5):
CN(C)[C@@H]1C(O)=C(C(N)=O)C(=O)[C@@]2(O)C(O)=C3C(=O)c4c(O)ccc(Cl)c4[C@@H](O)[C@H]3C[C@@H]12: 96.9%
C[C@]12C=CC(=O)C=C1CC[C@@H]1[C@@H]2C(=O)C[C@@]2(C)[C@H]1CC[C@]2(O)C(=O)CO: 166%
Oc1c(I)cc(Cl)c2cccnc12: 15%
